Measurements gathered from unrelated publications.
Every numbered part comes from another study and shows a few of its results, in no order.

Sample 1
Target: Hepatocyte nuclear factor 3-beta, forkhead domain (FOXA2, Homo sapiens, UniProt Q9Y261, residues 142-269)
Technique: protein-binding microarray
Form: double-stranded DNA, one strand shown
Matrix: in vitro
Tested at: not given
Setting: k-mer, scored over probes, only values ≥0.25
Direction: higher = stronger binding
Measurement: E-score
Construct (chain): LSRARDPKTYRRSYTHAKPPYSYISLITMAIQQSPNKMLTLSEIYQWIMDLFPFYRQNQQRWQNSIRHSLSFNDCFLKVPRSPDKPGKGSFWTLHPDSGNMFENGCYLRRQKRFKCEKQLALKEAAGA
TATCTCAA: 0.344
ACGTATTA: 0.335
AGCATGTA: 0.271
ATTTCCTA: 0.348
AATGATTA: 0.334
ATATACAC: 0.416
ACCAAACA: 0.37
CAACATTG: 0.298
TATGCAAA: 0.28
ATCGGAAT: 0.251
TATTTAAA: 0.317
ACGTAATG: 0.288
ATATGGGC: 0.28
CTAATATC: 0.286
AATAACGG: 0.255
ATACAGTG: 0.263
CATTTGTA: 0.324

Sample 2
Target: RNA binding protein fox-1 homolog 2, RRM domain, GST-SBP tag (RBFOX2, Homo sapiens, UniProt O43251-10, residues 100-194)
Technique: RNA Bind-n-Seq
Form: RNA
Matrix: in vitro
Tested at: 365 nM
Setting: natural RNA segment, single round, ends assumed
Relative to: no-protein control
Direction: higher = stronger binding
Measurement: RBNS enrichment (R)
All sequences stand within: GGGAGUUCUACAGUCCGACGAUC … UGGAAUUCUCGGGUGCCAA
Residues (chain): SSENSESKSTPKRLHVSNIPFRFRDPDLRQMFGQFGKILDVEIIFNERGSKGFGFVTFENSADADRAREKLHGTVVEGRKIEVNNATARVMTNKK
UCAGAUGACAAAAUGGAAGCCAAGACACCUUGAAGGUGACUUUCUAGGAAGGUCUUAAGCAUGUAAUGUCCCUUUAUCAGAGGGAAGGGGACAAACUCAGGGCAGCCCUG: 2.61
ACUCCAGUCCUGCCACCACCCUGUCUUCCUCUGCAAGUGCUCAGGGAAAUGGCCUUCCCGCCGGAGGCCAGCUAUCUGCCUGACAGGCUGUGACUCUUCUCUCAACCUUG: 0.318
CAGCUGUUCACACAAGGGGGCAGGAGCUCUGGUGGGUGUGCAGCCAUGUGGUCACAGCCUGCCAGCAGCAAGACACCUGGGUCCACCACACCUCAGUGGAAGUAGCAGAA: 0.37
ACUUUAGCCUAUAUUACCAGUGAAAUGUAGGCACUGUCUUCACGUGCUGUCCUGACCACAGAGUCUCCAGAACUGAGGACAUAAUUGCUCCUGUAUUUCUGUGUUCCUCG: 0.306
CAGCCUUGGUGGCAAGUCACUAGGAAACUUCAAGGUCUGUCUCAUCUUUAUUUUACUGUGUGCCCCUGGCUGUCCUGGAAAUCACUAUAUUGCUCAGGCUGGCUUCGGAC: 0.377
UGCAGAGAUUUUAUAUAUAUUUUGUUUGUAAUGAGCCAUUCUCAAUAAACAUUAUUCUCACUGCAAAUGGUGGUAGCCCCUGGCUGGCCUUUAUGAAGCUGUGUUGAUCU: 0.434
AUGCUGGGAAGCGGCAACUUUGGGGUUGAACUUACUUGAAUGGAUUAAAAAUUGCAUUGUGUUACAGAGCUAGAAAAUUUUAUGUAUGAAAAACGAUAAUAGCCUUACAC: 11.2
GCGAUCCGUACUCAGAACGUCCAGGAGAGACGCAUGGCCCGAAGUCAAAGUGCUGGAAUUUUCCAAAACAGCCUGUUCUCUCCUCUCUCCUCCCCAGAGCACCCCCUGCC: 2.3
UGACAGCUGGAGCUAUAUGGAUGGGUGAUGAGAGACGUUCCCCCAUCCUGUGUCUCCUGCUGUGUGGACACAUGUCACUCCUGCUCCACAUGCCAACAUGGUUCAUUUCC: 0.704
GCCAGCUGCACCCCGCCUGGCUCGCACAGGCUAAGACCACAGACAGAGCAGGGCUUCCCGGAGCCACACAGGCCACGCACCCCAGGAACCCUUGCUGCCGCGGGCCAGGA: 0.456
CAGUUGCCACACCAUGGGGUGGAGACGUGGGUCACCACGGGCUUGGGAGCAAGCGCCUUCUGCAGCACAGGAAGCCGAAGCUGGGGUCAGGUGAGGUCGCUACCCCUGGA: 0.282
CUUUCUCUACUCCUCUCCCUCAGUCCUGAGACACUAAGAUCCCCUGGGCCAAGUCAGUUGGAGGCUGAGGCUGCAAGGCCAGGUGUGUAGCCCUUUUGAUCAAAUUGGUC: 0.44

Sample 3
Target: Interferon regulatory factor 7, full length, phosphomimetic (IRF7, Homo sapiens, UniProt Q92985, residues 1-503, S471D/S472D/S475D/S476D/S477D/S483D/S484D/S487D)
UniProt Q92985, sequence (whole entry, unmodified, looked up): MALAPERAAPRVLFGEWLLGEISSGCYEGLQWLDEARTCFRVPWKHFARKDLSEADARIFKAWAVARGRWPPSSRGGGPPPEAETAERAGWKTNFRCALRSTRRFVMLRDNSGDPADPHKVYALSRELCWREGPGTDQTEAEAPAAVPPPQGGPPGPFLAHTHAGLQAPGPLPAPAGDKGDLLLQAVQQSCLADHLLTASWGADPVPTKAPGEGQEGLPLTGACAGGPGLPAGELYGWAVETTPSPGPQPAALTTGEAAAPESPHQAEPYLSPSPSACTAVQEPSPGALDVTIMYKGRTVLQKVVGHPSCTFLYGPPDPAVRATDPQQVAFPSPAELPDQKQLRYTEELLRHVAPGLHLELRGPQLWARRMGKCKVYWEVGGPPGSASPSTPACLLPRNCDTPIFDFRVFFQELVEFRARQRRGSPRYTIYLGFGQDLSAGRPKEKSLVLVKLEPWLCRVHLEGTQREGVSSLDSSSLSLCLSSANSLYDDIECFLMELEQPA
Technique: protein-binding microarray
Form: double-stranded DNA, one strand shown
Matrix: in vitro
Tested at: 2200 nM top
Setting: 60-bp whole probe
With: salmon DNA 0.4 mg/ml
Relative to: random background probes
Direction: higher = stronger binding
Measurement: fitted relative affinity
All sequences stand within: GCCTAGCAC … GTCTTGATTCGCTTGACGCTGCTG
TCATCTTTATGTACTCTCACTGTGCTA: 1.52 z-score
TCTTTTATGGTATTTTTTTGGTGCTAG: 1.27 z-score
TCAAGTTGGACCTCTCAGACTGTGCTA: -0.287 z-score
TTAGTTTCCCTTTTCCTTTAGTGCTAG: 9.31 z-score
TTATATTTCAGTCTCGATTAGTGCTAG: 1.45 z-score
TTAGATATTAGACTGGATTAGTGCTAG: -0.442 z-score
ATAGGTATCGGGTATCGGTTAGTGCTA: 0.808 z-score
TTAGGTATCGACTATCGGTCAGTGCTA: 0.148 z-score
TCATTTCCCACTTTCAGACTGTGCTAG: 4.68 z-score
TCATTTCTGGTTCCCATACTGTGCTAG: 3.7 z-score
GACGGACTCCTTTTCCTGACGTGCTAG: 1.26 z-score
TTAGGTTTCGGTTTTGGTTAGTGCTAG: 12.2 z-score
GACGATATCGGGAATCGAGACGTGCTA: -0.104 z-score
AATTTTTTTTCTAACTAAAAGTGCTAG: -0.0773 z-score
TCACCTGTACATCTATGACTGTGCTAG: 1.23 z-score
TTAGGTCTCCTTATCCTTCAGTGCTAG: 1.15 z-score
TCATCTCTGCTCCTTCTGACTGTGCTA: 1.87 z-score
TTAGAACTGAGTCTAGATTAGTGCTAG: -0.756 z-score
TTAGATTTCCGGTATCGATTAGTGCTA: 1.4 z-score
ATAGGTTTCCTTTTCCTTTAGTGCTAG: 7.07 z-score
TTAGATTTCGGGTAACGATTAGTGCTA: 1.8 z-score
CTAGGTTTCGGTTCCGGTTAGTGCTAG: 11.8 z-score
GACGATATCGCGTTTCGAGACGTGCTA: 1.48 z-score
TCAATCGTCCCTTTGAGACTGTGCTAG: 0.77 z-score
GACGATCCCAGTTTCGAGACGTGCTAG: 4.04 z-score

Sample 4
Target: RING finger protein unkempt homolog, zinc fingers 1-6, GST-SBP tag (UNK, Homo sapiens, UniProt Q9C0B0, residues 30-357)
UniProt Q9C0B0, sequence (30-357, looked up): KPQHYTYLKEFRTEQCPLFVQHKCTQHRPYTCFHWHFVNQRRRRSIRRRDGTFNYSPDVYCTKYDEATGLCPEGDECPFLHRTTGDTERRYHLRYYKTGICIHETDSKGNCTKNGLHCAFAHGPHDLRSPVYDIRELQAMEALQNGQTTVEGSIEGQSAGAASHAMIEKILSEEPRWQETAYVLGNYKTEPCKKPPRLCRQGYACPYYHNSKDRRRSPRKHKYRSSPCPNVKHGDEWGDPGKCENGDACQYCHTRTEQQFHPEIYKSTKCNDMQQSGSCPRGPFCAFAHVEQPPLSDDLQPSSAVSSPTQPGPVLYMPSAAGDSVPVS
Technique: RNA Bind-n-Seq
Form: RNA
Matrix: in vitro
Tested at: not given
Setting: RNA with constant flanks, human and mouse sites, ends assumed
Relative to: input RNA pool
Direction: higher = stronger binding
Measurement: bound/input enrichment
All sequences stand within: GGGAGUUCUACAGUCCGACGAUC … CAACAGAGGAUUGAGCAUCA
AUCUGCCUUCAUGCCUUCUACUAUGCCAUAUGGAAACGAUAUGGUGCCCUCCCUGAGAGAUAUAACUGGCAGCUGCAGGCCCCUGACGUUCUCUUCUACCCACUGAGACCAGAGUUAGUG: 0.441 ratio
GUGGACACACAGCACUUAAUUAAGCAGCUGAAGCAGCACUUUGCUAUGCUCUGAUCAGUGCUUGGGCCACAUAAGCCUUCACGGAGGGCCAGCGCACAGGGAAGAAAACGCACUGAGUGC: 0.208 ratio
GACAGCAGCCACCAUGUCGGAUACGCGGCGGCGAGUGAAGGUCUAUACCCUGAACGAAGACCGGCAAUGGGACGACCGAGGCACCGGGCACGUCUCCUCCACUUACGUGGAGGAGCUCAA: 0.211 ratio
AUUGAGUGCGGCUGGAAGGAUCAGCUAAAGGCACACUGUAAAGGUAAUUAAAGAAAAAGGACUAGAACACGUUACUGUUGAUGACUUGGUGGCUGAAAUCACUCCAAAAGGCAGAGCCCU: 0.19 ratio
UACCCCAGUGAAGAAGCCAAAGAGGAGCUGGCCAAGAAAUGCAGCAUCACAGUAUCACAGGUAUCCAACUGGUUUGGCAACAAACGAAUCAGGUACAAGAAGAACAUCGGCAAAUUUCAA: 0.201 ratio
UGUGUGGCCAGAGCUUUCACAGGAGGAAAGCGGGCUGCUGAAUUUAGUCACUGAUCUCUAUUAGCUGUGGCCUAAGGCUAUGCUGAGGUUUAUAUCCCAUUUGUACUGUUGCAGCUCAAA: 0.321 ratio
UAGGCGUGAGGCUGUGGACUUUGCGGAAUGUUUCGGGGUUUUAUUUUGGUUUUUUGUUUUUCCUUUUUUUUUUUUUUUUUUAAACAAACAAACAAACCGGGCAAUAUUGUGUUCAGUUCA: 3.38 ratio
AUCUGUAAUUUCAGUCUCUUUUUUUCUGAAAUACAUUAUAUUGUAUGUUUGAGAUAAUUCUAGUACAAAGUAUAAUAAACUAGAUGUAUAAUAAACCCUUUAAAUCAUUGCUAAGUGUAU: 0.986 ratio
AUUAGAAAUGAUACUUUCAGUGACUCUCCAGUUUGGCCCUGGAUCCCAUCUUUGUCUGAUAUAGCAGCUGUAUUCUUCAACAUGGGCGUUGGUUUUGGAUCUUUGUUUCCUCUGGAGACU: 0.796 ratio
UACCUCCUCAGCGAUGGGACCUGCAAGUGCGGUCUGGAGUGUCCACUUAAUGUCCCCAAGGUUUUCAACUUUGACCCUUUGGCCCCGGUGACCCCGGGUGGGGCUGGGGUGGGGCCAGCA: 0.129 ratio
UUAAAGAAGCCACUGUGUUUUAGUGUAGUUGGCAAAAAUAUAAAAGCUGUUUCUUAUUUGCCCCUAUUUUUUUGGUGUCUUAAAGUUAUAUAUUAAAUCACAGAGAAGCAAGGGAGAAAG: 0.917 ratio

Sample 5
Target: Histone acetyltransferase KAT6A, both winged helices, GST fusion (KAT6A, Homo sapiens, UniProt Q92794, residues 1-181)
Technique: protein binding microarray
Form: double-stranded DNA, one strand shown
Matrix: in vitro
Tested at: not given
Setting: 8-mer, flanks averaged, mean of 2 arrays, mostly near background
Relative to: not given
Direction: higher = stronger binding
Measurement: E-score
Target sequence (chain): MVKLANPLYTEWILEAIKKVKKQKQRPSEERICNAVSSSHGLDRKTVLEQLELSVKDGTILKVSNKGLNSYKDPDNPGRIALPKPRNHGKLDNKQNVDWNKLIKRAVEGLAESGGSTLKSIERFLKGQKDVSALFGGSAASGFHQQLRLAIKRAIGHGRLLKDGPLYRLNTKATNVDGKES
CGCGTATA: 0.251
GTTCCTTA: -0.0645
CTCAAGCC: 0.0377
CGTCTACC: 0.141
AAGCTCGC: 0.0315
CTCCTCTA: -0.201
CGGCCTTA: 0.218
CCTATCAA: -0.103
AACCGGAG: 0.143
GAAGACAA: -0.103
CACTTGCG: 0.193
CAGTCAAA: -0.0412
ACACATCT: -0.189
GCGGGTGA: 0.217
CCGGATGA: -0.0801
GACCTACC: -0.159
GGGGATAA: -0.111
GAACAATC: 0.0595
AAATCCAA: -0.0549
CCCAAACG: -0.0581
CGCCCCAA: 0.0964
GTGGTAAA: -0.139
CTCGATAA: -0.0538
GAGAATCA: -0.0607
